Experimental data gathered from unrelated publications.
Lines come from different studies, so protocols differ. ± marks the error that the study gave. ≈ marks a conversion by molar mass, not a printed value.

| SMILES | organism | test | system | conditions | scale | quantity | value |
| --- | --- | --- | --- | --- | --- | --- | --- |
| CN(Cc1cc(N(C)C)c2c(c1O)C(=O)C1=C(O)[C@]3(O)C(=O)C(C(N)=O)=C(O)[C@@H](N(C)C)[C@@H]3C[C@@H]1C2)CC(C)(C)C | Streptococcus pneumoniae |  | ATCC 700905, Tet M ribosome protection |  |  | MIC | 0.125 µg/mL (≈ 0.219 µM) |
| C=C(C)[C@@H]1CC[C@]2(C(=O)NC(CO)Cc3ccccc3)CC[C@]3(C)[C@H](CC[C@@H]4[C@@]5(C)CCCNC(C)(C)[C@@H]5CC[C@]43C)[C@@H]12 (stereo partly shown) | Human cytomegalovirus | cytopathic effect | HFF, AD169 |  |  | EC90 | > 1.2 µM |
| CNCc1cc(N(C)C)c2c(c1O)C(=O)C1=C(O)[C@]3(O)C(=O)C(C(N)=O)=C(O)[C@@H](N(C)C)[C@@H]3C[C@@H]1C2 | Streptococcus pneumoniae | microbial growth, broth dilution |  |  |  | MIC | 1 µg/mL (≈ 2 µM) |
| Nc1ncnc2c1c(-c1ccc(Cl)c(F)c1)cn2[C@@H]1O[C@H](CO)[C@@H](O)[C@H]1O | Trichomonas vaginalis | resorufin | G3, metronidazole-sensitive | 24 h + 2 h, 2% O2 |  | EC50 | 0.12 ± 0.009 µM |
| CC1(C)NCCC[C@]2(C)[C@H]3CC=C4[C@@H]5C[C@@](C)(CO)CC[C@]5(C)CC[C@@]4(C)[C@]3(C)CC[C@@H]12 | Human cytomegalovirus | cytopathic effect | HFF, AD169 |  |  | EC90 | > 6 µM |
| CC1(C)Cc2sc(NC(=O)Cc3ccc(S(N)(=O)=O)cc3)c(C#N)c2CN1CC1CCCCC1 | Zika virus | viral replication | A549, Dakar, Nluc reporter | up to 50 µM |  | inhibition | no inhibition |
| CN[C@H](CC(C)C)C(=O)N[C@H]1C(=O)N[C@@H](CC(N)=O)C(=O)N[C@H]2C(=O)N[C@H]3C(=O)N[C@H](C(=O)N[C@H](C(=O)O)c4cc(O)cc(O)c4-c4cc3ccc4O)[C@H](O)c3ccc(c(Cl)c3)Oc3cc2cc(c3O[C@@H]2O[C@H](CO)[C@@H](O)[C@H](O)[C@H]2O[C@H]2C[C@](C)(NCc3ccc(C(=O)OCCCCCCN(Cc4ccccn4)Cc4ccccn4)cc3)[C@H](O)[C@H](C)O2)Oc2ccc(cc2Cl)[C@H]1O | Staphylococcus aureus | mature biofilm, confocal microscopy | ATCC 33591 MRSA | 20 µM, 24 h |  | biofilm thickness | 8.3 µm |
| CCCn1ccc([C@H](C)[C@](O)(Cn2cnnn2)c2ccc(F)cc2F)n1 | Candida tropicalis | growth, broth microdilution | 2718 | 24 h, 30 °C, ≥50% inhibition |  | MIC | 0.5 µg/mL (≈ 1.38 µM) |
| CC(=O)Nc1cccc(Cn2nc(C)c3c(C)n(-c4ccccc4)nc3c2=O)c1 | Zika virus |  | Vero, MR766 |  | baseline: CC50 over EC50 | selectivity index | 1.8 |
| CC[C@H](C)[C@H](NC(=O)[C@H](CCCCN)NC(=O)[C@H](CC(N)=O)NC(=O)[C@H](CC(C)C)NC(=O)[C@H](Cc1ccccc1)NC(=O)[C@H](CCCCN)NC(=O)[C@H](CCCCNC(=N)N)NC(=O)[C@H](CC(C)C)NC(=O)[C@H](CC(C)C)NC(=O)[C@H](CCCCN)NC(=O)[C@H](CCCCNC(=N)N)NC(=O)[C@H](CC(C)C)NC(=O)CNC(C)=O)C(=O)N[C@@H](CCCCN)C(=O)N[C@@H](CCCCNC(=N)N)C(N)=O | all bacteria tested |  |  |  |  | geometric mean MIC | 4.42 µM |
| CCOC(=O)c1c(-c2ccccc2)oc2ncccc12 | Trypanosoma cruzi |  | 3T3 host cells, Tulahuen beta-galactosidase | 6 days |  | EC50 | 14.7 µM |
| CNCc1ccc2c(c1)N(C(=O)OCc1c(F)c(F)c(F)c(F)c1F)[C@H](CNC(=N)N)[C@H]2NC(=O)C(=O)Nc1ccc(Cl)c(F)c1 | amphotropic murine leukemia virus | viral infection | Cf2Th-CD4/CCR5 |  |  | IC50 | > 300 µM |
| CCCCCc1ccc2c(c1O)C(c1ccc(OC)c(OC)c1)OC2=O (stereo not shown) | Naegleria fowleri | parasite growth, resazurin |  | 48 h |  | IC50 | 13 µM |
| CN(C)c1cc(CNCc2ccc(O)cc2)c(O)c2c1C[C@H]1C[C@H]3[C@H](N(C)C)C(O)=C(C(N)=O)C(=O)[C@@]3(O)C(O)=C1C2=O | Streptococcus pneumoniae |  | ATCC 700905, Tet M ribosome protection |  |  | MIC | 1 µg/mL (≈ 1.69 µM) |
| Cc1ccc2nc(-c3ccc(Cl)cc3)c(CN3CCN(c4ccc(F)cc4)CC3)n2c1 | Trypanosoma cruzi |  | 3T3 host cells, Tulahuen beta-galactosidase | 6 days |  | EC50 | 1.1 µM |
| COc1ccc(-c2nc(-c3ccccc3OC)[nH]c2-c2ccc(OC)cc2)cc1 | Schistosoma mansoni |  | mature male and female worms | 10 µM, 96 h |  | worm killing | 0% |

Repeated from above:
| SMILES | organism | test | system | conditions | scale | quantity | value |
| --- | --- | --- | --- | --- | --- | --- | --- |
| C=C(C)[C@@H]1CC[C@]2(C(=O)NC(CO)Cc3ccccc3)CC[C@]3(C)[C@H](CC[C@@H]4[C@@]5(C)CCCNC(C)(C)[C@@H]5CC[C@]43C)[C@@H]12 (stereo partly shown) | Human cytomegalovirus | cytopathic effect | HFF, AD169 |  |  | EC90 | > 1.2 µM |
